# Experimental data gathered from unrelated publications.
# Parts stem from different laboratories: compare values within a part only.

# Sample 1 — method: competition protein-binding microarray; form: double-stranded DNA, one strand shown; medium: in vitro; tested at: 2 µM; added: Pho4 competitor, 0.05 µM; direction: higher = stronger binding
# Target: Centromere-binding protein 1, full length, His-tagged (CBF1, Saccharomyces cerevisiae, UniProt P17106, residues 1-351)
# Chain of UniProt P17106 (whole entry, looked up): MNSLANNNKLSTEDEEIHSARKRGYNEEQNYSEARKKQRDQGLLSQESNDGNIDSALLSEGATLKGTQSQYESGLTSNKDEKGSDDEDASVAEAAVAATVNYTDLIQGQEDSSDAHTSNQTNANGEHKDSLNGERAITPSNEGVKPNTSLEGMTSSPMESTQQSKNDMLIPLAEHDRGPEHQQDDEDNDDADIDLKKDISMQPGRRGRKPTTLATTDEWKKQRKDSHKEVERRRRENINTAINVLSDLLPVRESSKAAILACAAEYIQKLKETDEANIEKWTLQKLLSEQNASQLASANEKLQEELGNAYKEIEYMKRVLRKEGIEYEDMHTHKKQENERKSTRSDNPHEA
# Setting: whole 60-bp probe, lowest competitor level
Sequence,fluorescence intensity
ATTGTTGCTAAAAACGACATGACAACCATGAAGTACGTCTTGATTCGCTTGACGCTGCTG,92.7 a.u.
TTTGATTGGTAAACACACGTGGTTACATGAATTCTTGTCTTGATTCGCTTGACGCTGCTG,1340 a.u.
AGGCGGGTATTCCACCTGGTGTGTTCAACATTGTATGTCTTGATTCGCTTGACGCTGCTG,64 a.u.
TGCGCAACAACTTGTCACATGACTTTATGTCTAGAAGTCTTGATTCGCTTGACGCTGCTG,2790 a.u.
CATACCCAACCTTGATCTGTGGGTGAAGATATTTGTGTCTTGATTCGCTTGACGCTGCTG,66 a.u.
TGCGCAACAACTTGTCACCACACTTTATGTCTAGAAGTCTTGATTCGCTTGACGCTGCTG,87.3 a.u.
ATATAGACAAAAGTGGCCGTGACGGGTAAAAAGGATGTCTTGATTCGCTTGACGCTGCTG,139 a.u.
TGCTGGCGCTGCTACGCCGTGACGGCTCATTTCATCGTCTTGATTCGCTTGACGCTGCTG,59.2 a.u.
TGCGCAACAACTTGTCACATAACTTTATGTCTAGAAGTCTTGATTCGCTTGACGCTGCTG,73.4 a.u.
AGTCCTTTTCTTATGCTCGTGGTGATTGTCAGTCTTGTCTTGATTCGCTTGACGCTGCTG,93.7 a.u.
CCCTCCTCTCAGTCCCACGTGGGCGCTGGCGGCTTTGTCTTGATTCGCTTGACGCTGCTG,707 a.u.
CGGGGTTAAGTTTGTACAGTGGGTGGCTTGCAGCAGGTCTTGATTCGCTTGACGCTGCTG,78.6 a.u.
TGTAGAAGCAAAAAGCACGTCGCCTTGGCTGATGAGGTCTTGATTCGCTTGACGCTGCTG,59 a.u.
GAATCAAAGGGTTTATCCGTGTCTGAACGCAATGTGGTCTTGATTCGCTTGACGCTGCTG,69.9 a.u.
CGGGGTTAAGTTTGACCTGTGGGTGGCTTGCAGCAGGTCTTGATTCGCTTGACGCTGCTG,61.1 a.u.
AAAGCGGTAATTTGGCCTGTGGGTGCAGATATCTATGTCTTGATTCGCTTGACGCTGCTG,77.2 a.u.
TGGCCCTTTCACCAACACGTGCCAGTTTCCAGAAGGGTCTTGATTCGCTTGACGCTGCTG,2250 a.u.
TTTGCAAGTATATATCTGTATGTATCCATATTTAGAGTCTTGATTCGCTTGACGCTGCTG,85.1 a.u.
CATACCCAACCTTGCTATGTGGGTGAAGATATTTGTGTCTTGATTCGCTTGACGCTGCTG,83.6 a.u.
TCTAATCTCTAAGTACACGTGCAAATGGACCTATCAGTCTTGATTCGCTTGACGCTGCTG,1250 a.u.
AAATTACTAAGTTTTCACGTGCTCTACCCCGTATGAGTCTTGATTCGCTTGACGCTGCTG,1450 a.u.

# Sample 2 — method: protein binding microarray; form: double-stranded DNA, one strand shown; medium: in vitro; tested at: not given; reference: not given; direction: higher = stronger binding
# Target: Histone acetyltransferase KAT6A, winged helix 1, GST fusion (KAT6A, Homo sapiens, UniProt Q92794, residues 1-85)
# Setting: 8-mer, flanks averaged, mean of 2 arrays, mostly near background
# Residues (chain): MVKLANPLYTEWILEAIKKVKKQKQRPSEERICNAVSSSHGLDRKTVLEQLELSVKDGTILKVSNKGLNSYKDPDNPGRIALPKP
Sequence,E-score
ATTAGACC,-0.0268
CGGGTACA,0.328
ACAATACT,-0.225
CTAGCCTC,-0.174
CCAGAGAC,-0.112
AGGACAAT,-0.197
CCCCGTCC,0.33
AATGCAAC,-0.263
CTGGGGGC,-0.0947
TAAGAACA,-0.0632
GACTGGCA,-0.0317
CTCGAAAC,-0.149
ATCTGTCG,0.118
ATTTTCCG,0.163
AAATTAAC,-0.0741
CTAGAGAA,-0.0371
AATTGGAA,-0.126
AGAGATGA,-0.132
ATAGCCGA,0.134
ATGGATTG,-0.134
CCCGGCCG,0.446

# Sample 3 — method: RNA Bind-n-Seq; form: RNA; medium: in vitro; tested at: 365 nM; reference: no-protein control; direction: higher = stronger binding
# Target: RNA binding protein fox-1 homolog 2, RRM domain, GST-SBP tag (RBFOX2, Homo sapiens, UniProt O43251-10, residues 100-194)
# Setting: natural RNA segment, single round, ends assumed
# Target sequence (chain): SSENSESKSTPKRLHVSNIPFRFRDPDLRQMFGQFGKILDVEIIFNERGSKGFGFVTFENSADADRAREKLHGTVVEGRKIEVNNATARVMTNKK
Sequence,RBNS enrichment (R)
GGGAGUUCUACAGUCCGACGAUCUGUCUGAGUCCCUUGAUCAUUGUCCUUUACCUCACAGUCUCUAGGAUUCCUGACUCAGGCUGACCUCUCUCUCUGGUCCCAGACUGCCUCCUUGCCCAGGCCUCUCUCACUGGAAUUCUCGGGUGCCAA,0.333
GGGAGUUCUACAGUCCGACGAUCUCCUAUUUUAAAAGAGUUUUAGUAACGGUGAGCUGAGAAAUUCUGGUCAUGGUGAGCAGCAGGCGCAAGCCAUGCAGCCUGUGGACUGUGCGCAUUGAUAUGUGGAGGCUUGGAAUUCUCGGGUGCCAA,0.923
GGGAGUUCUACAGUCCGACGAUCGUCACUGUGCCCAGCAGGGUGGGCUGUGCCCAGCAGGAGUCAGGCUAAGAAACGCCAGGUCUGCCUGUUCUUGCUGGGCAAUGGCUGAUGGCUGCCAGUUUCUGCUGAUAUGGAAUUCUCGGGUGCCAA,0.492
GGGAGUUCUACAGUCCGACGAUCCAUUUUAGCAACUAGUGUGGCGGCCACUUAAUUUGCCAGCCUCUCCAAGCCUGAAAAGGUCCAGGUGUCUAAGCUCUUCUCUGACUGCAACGAGUUGAAUUCUAAUCCUCUGGAAUUCUCGGGUGCCAA,0.373
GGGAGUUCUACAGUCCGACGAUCAAGUUGAAUAAAAAGUCACAGAGGAUGUAAAUUUUGUACAGGACUAGAAUGUAAAUGAAGCUUGCUUGGAAGGGGAAAACUUUAAAUAAAACUUUAUGUAUAAAUUCAACUGGAAUUCUCGGGUGCCAA,1.61
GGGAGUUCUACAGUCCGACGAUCAUCUCAUCAUCUCACGAAUCUGCUGUAAUAUAAGACAACAGCUUUUAAAUGUGUAUAUAACCCAUGAUUUCGGUUUUGUUUUGUUUUGUUUUUCUUGAUGGUUUCCCUCUUGGAAUUCUCGGGUGCCAA,0.648
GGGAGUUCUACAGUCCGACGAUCCCAGGAUGACUUGGAUCUGGGAAGGGCGUGUCAUCUCAGUUUGUUCCUCCCGCACCCCUCCUCCCCCUGCUUCCUGUGGGAUCAGAGUAAGGCUCCUGUUGGCCAGUAGCUGGAAUUCUCGGGUGCCAA,1.22
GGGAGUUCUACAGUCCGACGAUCUCACAGGGAAAAGAAGGAUUAUAUAGACUUCCUAUCCCUAGAGUUUAUAAAUGUCAACUAUAUAAAAAAAGCUCAAAACAGUGUUAAAGGAAUGAACAGUAGAAUUUUAAUGGAAUUCUCGGGUGCCAA,0.948
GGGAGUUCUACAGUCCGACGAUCAUACACAUUGUUGUUUUUGCUGGUCUCAUCUUUGGUAAUAUGCUAUACCCCACUGCUGCCCGACACUGCCCUUUAGCUGCAGAGCUGGAUUAGCUGUUGACCAUUUGAUGUGGAAUUCUCGGGUGCCAA,0.504
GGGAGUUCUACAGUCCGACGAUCCCCCAUUUGAGCUGCUCCUUCCUGUGUGUGCUCUGGGCCCUGCCUCGGCCUCCUGCGCCAAUACUGUGACUUCCAAACAAUGUUACUGCUGGGCACAGCUCUGCGUUGCUUGGAAUUCUCGGGUGCCAA,0.269
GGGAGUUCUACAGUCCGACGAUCGGCCUCCUGAAGCCUUGUCACAACUGGAAACACUUGAAAGGGGACCUCAGAGCCAGCCAUUGCUGGUGUCUGGAGUCUCCCAGACCACUCACUGCUUCUUGCCAGUUAUGUGGAAUUCUCGGGUGCCAA,0.198
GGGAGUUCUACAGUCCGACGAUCUUGCUGGCAUGUCUCCUUCACAAUCAGGCGUGGGAAUAUCUGGCUUAGGACUGUUUCUCUCUAAGACACCAUUGUUUUCCCUUAUUUUAAAAGUGAUUUUUUUAAGGACAUGGAAUUCUCGGGUGCCAA,0.368

# Sample 4 — method: RNA Bind-n-Seq; form: RNA; medium: in vitro; tested at: 200 nM; setting: whole 134-nt RNA, ends assumed; added: 150 mM KCl; reference: input library; direction: higher = stronger binding
# Target: Fragile X messenger ribonucleoprotein 1, C-terminal low-complexity region (Fmr1, Mus musculus, UniProt P35922)
Sequence,log2 enrichment
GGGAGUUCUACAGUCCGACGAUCAAGUCCUGUGCUACACAUCGUAUGUACCGAAUCGGUUUUUUUGGUGGUUUUUUUGGAAAGUAUUAUGUUACGCCGUUCGGAUCUGCACUUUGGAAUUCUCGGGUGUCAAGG,-0.94
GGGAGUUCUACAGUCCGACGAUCUGUGUGCAUUCCCUGCGCCAAGGGCUUCCCCAGCUCUGAGCAGCUCAAUGCGCACGUGGAGACUCACACGGAGGAAGAGCUGUUCAUCAAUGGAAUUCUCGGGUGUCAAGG,-1.4
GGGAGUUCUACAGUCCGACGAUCAAGUCCUGUGCUACACAUCGUAUGUACCGAAUCGGGAAAAAGGGUUUUUGGGUGGGAAAGUAUUAUGUUACGCCGUUCGGAUCUGCACUUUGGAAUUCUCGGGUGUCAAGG,0.849
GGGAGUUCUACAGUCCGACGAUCUGGCCCUGGUGGCAUGCGGGGAGGAAGAGGUGGCCUCAUUGAUCGUGGUGGUCCCGGUGGAAUGUUCAGAGGUGGCCGUGGUGGAGACAGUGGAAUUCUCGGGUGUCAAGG,0.0725
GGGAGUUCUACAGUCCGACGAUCCGGUCAGACUUUGUGUUACAUAAAUUAACACUGUUCUCAGGUAAUGAGAGAUCCAAACACCAAGCGCUCCAGGGGCUUUGGGUUUGUCACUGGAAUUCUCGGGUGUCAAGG,-0.644
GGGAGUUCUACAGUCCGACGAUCUGGGAGGUGGAUUUUGUUCAUUUUUUUAGCUCAUUUCCAGGGGUGGGAAUUUUUUUUUAAUAUGUGUCAUGAAUAAAGUUGUUUUUGAAAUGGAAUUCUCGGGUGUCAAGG,0.212
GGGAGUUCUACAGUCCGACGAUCCCUCAAGUCCUGUGCUACACAUCGUAUGUACCGAAUCGGGUUGGUUGGGUUGGAAAGUAUUAUGUUACGCCGUUCGGAUCUGCACUUCCAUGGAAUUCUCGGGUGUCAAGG,0.0103
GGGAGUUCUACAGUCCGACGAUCCCUGUGCUACACAUCGUAUGUACCGAAUCGGGUUUUUUGGGUUUUUUGGGUUUUUUGGGGAAAGUAUUAUGUUACGCCGUUCGGAUCUGCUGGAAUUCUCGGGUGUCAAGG,-0.43
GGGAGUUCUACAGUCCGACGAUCCCUCAAGUCCUGUGCUACACAUCGUAUGUACCGAAUCGGGAGGGGAGGGAGGGAAAGUAUUAUGUUACGCCGUUCGGAUCUGCACUUCCAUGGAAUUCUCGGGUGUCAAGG,1.39
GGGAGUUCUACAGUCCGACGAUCACCAUGCAGGUGGGCAUCUUUGGGAAGUGGGGCAAGGGGGGGAUAGGGAGGGGGGUAACACUUUGGGAACAGGUGGUCCCAGGUCGUUACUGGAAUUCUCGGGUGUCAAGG,0.746

# A few entries again (sample 1):
Sequence,fluorescence intensity
TTTGATTGGTAAACACACGTGGTTACATGAATTCTTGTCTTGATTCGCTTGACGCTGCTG,1340 a.u.
TTTGCAAGTATATATCTGTATGTATCCATATTTAGAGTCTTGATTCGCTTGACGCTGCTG,85.1 a.u.
CGGGGTTAAGTTTGTACAGTGGGTGGCTTGCAGCAGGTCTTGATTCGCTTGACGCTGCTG,78.6 a.u.
TGTAGAAGCAAAAAGCACGTCGCCTTGGCTGATGAGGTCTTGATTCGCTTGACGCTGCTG,59 a.u.
CGGGGTTAAGTTTGACCTGTGGGTGGCTTGCAGCAGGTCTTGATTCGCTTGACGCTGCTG,61.1 a.u.
AGGCGGGTATTCCACCTGGTGTGTTCAACATTGTATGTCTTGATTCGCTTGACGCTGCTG,64 a.u.
CATACCCAACCTTGATCTGTGGGTGAAGATATTTGTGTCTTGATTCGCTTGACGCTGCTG,66 a.u.
TGCGCAACAACTTGTCACCACACTTTATGTCTAGAAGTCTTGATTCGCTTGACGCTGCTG,87.3 a.u.
TGCGCAACAACTTGTCACATGACTTTATGTCTAGAAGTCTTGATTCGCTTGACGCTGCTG,2790 a.u.
